Measurements from different studies.
Numbered parts are unrelated; each lists some results of a single study. Changes are numbered by the printed parent chain. Numbers after ± are the reported error.
Sequence of UniProt Q86Z02 (whole entry, looked up): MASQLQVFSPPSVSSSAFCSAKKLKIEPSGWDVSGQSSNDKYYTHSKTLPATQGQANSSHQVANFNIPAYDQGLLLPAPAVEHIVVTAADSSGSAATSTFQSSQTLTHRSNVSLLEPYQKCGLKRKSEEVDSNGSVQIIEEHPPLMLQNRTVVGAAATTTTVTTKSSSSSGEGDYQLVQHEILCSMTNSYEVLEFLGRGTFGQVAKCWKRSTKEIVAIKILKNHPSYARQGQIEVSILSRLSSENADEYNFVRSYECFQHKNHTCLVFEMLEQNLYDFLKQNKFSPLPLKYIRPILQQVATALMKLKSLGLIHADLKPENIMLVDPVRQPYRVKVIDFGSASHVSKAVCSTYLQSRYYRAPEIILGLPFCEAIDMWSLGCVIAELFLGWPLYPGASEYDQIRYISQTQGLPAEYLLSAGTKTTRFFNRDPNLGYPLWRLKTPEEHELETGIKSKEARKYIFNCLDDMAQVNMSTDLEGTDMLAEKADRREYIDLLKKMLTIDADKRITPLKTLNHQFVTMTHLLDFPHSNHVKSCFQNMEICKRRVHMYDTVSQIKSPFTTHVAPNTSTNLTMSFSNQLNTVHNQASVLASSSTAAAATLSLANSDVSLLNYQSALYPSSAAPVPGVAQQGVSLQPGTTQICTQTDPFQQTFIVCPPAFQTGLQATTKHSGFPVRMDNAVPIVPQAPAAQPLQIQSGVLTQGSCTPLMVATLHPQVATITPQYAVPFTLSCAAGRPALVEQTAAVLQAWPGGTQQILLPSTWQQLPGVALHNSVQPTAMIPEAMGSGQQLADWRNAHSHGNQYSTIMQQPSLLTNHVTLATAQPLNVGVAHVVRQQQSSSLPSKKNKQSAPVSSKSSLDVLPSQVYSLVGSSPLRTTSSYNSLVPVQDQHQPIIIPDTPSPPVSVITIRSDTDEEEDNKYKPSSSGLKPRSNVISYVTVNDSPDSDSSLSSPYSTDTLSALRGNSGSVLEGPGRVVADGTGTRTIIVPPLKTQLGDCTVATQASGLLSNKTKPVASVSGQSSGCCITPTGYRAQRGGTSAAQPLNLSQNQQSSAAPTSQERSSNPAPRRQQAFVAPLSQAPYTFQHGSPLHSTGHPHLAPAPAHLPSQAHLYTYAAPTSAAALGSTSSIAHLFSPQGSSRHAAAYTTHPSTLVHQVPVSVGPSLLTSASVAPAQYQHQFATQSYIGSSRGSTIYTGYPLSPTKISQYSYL
Sequence of UniProt Q9H2K8 (whole entry, looked up): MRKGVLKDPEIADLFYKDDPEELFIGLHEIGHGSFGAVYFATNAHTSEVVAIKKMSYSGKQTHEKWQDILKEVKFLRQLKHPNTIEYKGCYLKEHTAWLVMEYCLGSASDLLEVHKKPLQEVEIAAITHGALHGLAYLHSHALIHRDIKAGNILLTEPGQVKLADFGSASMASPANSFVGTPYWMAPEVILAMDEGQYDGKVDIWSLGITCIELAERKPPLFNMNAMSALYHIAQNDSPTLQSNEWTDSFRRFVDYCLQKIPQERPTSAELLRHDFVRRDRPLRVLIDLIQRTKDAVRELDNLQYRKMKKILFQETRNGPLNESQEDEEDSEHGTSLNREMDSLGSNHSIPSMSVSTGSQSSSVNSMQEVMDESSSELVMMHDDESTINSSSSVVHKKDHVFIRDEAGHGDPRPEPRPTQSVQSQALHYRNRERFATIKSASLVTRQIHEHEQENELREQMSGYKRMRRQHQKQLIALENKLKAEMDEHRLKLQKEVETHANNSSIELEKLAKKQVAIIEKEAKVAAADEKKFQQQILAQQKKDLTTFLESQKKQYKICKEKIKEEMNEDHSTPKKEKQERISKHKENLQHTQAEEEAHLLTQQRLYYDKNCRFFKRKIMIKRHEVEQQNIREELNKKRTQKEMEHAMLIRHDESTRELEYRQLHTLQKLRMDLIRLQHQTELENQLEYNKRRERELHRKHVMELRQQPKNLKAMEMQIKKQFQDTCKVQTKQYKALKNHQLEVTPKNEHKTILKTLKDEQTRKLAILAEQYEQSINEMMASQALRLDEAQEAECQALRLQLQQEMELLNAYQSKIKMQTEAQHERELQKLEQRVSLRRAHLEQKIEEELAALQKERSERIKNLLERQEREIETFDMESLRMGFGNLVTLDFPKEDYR
Sequence of UniProt Q00526 (whole entry, looked up): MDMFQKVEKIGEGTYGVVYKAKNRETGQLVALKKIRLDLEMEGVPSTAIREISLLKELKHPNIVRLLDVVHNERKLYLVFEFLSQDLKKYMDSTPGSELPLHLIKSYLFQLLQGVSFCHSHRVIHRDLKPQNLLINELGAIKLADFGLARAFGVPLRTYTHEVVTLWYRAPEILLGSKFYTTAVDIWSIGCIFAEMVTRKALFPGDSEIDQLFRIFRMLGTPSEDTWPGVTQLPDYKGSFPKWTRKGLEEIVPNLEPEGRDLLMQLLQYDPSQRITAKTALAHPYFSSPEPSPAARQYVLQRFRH
Sequence of UniProt Q13164 (whole entry, looked up): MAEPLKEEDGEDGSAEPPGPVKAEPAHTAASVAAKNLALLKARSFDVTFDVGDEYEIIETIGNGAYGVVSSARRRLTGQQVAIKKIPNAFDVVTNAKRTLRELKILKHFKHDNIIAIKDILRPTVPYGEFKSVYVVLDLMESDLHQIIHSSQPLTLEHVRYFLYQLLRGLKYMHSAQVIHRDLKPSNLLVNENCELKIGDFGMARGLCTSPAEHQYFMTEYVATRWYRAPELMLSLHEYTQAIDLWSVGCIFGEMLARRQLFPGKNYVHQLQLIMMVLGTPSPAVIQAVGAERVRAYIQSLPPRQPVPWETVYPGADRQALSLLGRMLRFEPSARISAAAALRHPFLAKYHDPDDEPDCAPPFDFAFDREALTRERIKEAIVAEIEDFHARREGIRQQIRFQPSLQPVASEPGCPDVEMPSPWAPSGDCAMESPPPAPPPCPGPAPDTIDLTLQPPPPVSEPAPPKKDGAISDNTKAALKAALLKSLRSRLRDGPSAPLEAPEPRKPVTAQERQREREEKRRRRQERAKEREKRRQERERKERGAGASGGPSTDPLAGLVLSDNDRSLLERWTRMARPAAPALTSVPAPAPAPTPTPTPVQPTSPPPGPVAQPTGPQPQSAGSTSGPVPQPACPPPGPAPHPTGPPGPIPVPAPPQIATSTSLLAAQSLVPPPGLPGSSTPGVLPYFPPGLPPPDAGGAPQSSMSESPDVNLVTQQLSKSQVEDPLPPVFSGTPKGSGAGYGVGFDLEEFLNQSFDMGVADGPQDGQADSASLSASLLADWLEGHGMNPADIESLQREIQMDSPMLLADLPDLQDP
Sequence of UniProt Q15208 (whole entry, looked up): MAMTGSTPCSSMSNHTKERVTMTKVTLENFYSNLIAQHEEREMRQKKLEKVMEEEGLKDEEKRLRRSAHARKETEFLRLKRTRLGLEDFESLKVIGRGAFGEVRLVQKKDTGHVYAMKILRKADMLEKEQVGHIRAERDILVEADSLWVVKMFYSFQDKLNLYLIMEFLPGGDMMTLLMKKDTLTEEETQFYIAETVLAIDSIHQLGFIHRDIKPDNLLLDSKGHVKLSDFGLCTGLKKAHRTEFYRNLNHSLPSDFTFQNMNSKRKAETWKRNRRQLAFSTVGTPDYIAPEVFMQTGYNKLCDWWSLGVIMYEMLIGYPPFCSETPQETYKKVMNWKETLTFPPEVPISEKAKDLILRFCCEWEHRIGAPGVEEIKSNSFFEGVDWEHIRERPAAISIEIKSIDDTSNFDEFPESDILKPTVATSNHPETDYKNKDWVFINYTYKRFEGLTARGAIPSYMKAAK
Sequence of UniProt P07333 (whole entry, looked up): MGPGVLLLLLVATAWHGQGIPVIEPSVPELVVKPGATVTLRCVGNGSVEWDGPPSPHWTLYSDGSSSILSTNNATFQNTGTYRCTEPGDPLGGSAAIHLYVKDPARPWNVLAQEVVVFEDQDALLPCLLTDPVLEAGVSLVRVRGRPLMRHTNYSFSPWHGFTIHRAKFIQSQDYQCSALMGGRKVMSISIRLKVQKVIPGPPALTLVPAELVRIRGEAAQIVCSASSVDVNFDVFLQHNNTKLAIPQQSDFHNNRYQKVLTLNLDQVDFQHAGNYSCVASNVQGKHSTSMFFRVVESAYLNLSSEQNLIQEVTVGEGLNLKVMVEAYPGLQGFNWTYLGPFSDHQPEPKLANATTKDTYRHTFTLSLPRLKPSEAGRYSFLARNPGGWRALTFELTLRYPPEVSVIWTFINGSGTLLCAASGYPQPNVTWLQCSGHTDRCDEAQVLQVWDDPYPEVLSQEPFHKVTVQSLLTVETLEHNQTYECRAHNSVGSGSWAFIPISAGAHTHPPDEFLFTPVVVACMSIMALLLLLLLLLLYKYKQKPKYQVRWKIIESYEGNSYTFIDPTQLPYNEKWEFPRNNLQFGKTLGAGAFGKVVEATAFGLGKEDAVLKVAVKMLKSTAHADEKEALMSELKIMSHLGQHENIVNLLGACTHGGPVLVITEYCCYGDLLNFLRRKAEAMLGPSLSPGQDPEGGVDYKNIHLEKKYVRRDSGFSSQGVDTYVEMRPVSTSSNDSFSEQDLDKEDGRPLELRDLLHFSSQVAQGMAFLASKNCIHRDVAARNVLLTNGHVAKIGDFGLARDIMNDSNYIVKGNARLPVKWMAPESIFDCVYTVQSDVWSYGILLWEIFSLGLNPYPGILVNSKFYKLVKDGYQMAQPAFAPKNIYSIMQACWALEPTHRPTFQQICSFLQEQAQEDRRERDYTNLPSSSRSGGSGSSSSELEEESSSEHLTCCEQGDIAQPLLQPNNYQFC
Sequence of UniProt P53778 (whole entry, looked up): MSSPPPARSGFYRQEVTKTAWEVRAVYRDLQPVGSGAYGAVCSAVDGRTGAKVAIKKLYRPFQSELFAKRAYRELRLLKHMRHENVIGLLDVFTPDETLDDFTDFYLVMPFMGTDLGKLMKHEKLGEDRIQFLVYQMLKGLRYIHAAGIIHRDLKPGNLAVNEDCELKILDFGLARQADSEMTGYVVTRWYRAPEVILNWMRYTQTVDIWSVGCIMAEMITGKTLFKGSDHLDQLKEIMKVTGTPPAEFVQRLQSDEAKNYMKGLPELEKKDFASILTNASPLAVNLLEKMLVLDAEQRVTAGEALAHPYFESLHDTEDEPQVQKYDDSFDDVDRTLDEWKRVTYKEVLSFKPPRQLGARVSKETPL

Set 1
Structure (SMILES): Cn1cnc2cc3c(Nc4cccc(Br)c4)ncnc3cc21
Read-out: enzyme activity
Mode: inhibitor
Tested at: 0.5 µM
Relative to: control
target | remaining activity [%]
Cyclin-dependent kinase 3, with cyclin E (CDK3, Homo sapiens, UniProt Q00526) | 92.5
LIM domain kinase 1 (LIMK1, Homo sapiens, UniProt P53667) | 99
cAMP-dependent protein kinase catalytic subunit PRKX (PRKX, Homo sapiens, UniProt P51817) | 101
ALK tyrosine kinase receptor (ALK, Homo sapiens, UniProt Q9UM73) | 92.4
Serine/threonine-protein kinase NLK (NLK, Homo sapiens, UniProt Q9UBE8) | 100
Tyrosine-protein kinase Fer (FER, Homo sapiens, UniProt P16591) | 90.6
Proto-oncogene tyrosine-protein kinase Src (SRC, Homo sapiens, UniProt P12931) | 81.2
Serine/threonine-protein kinase Nek11 (NEK11, Homo sapiens, UniProt Q8NG66) | 101
Serine/threonine-protein kinase TAO3 (TAOK3, Homo sapiens, UniProt Q9H2K8) | 97.6
RAC-alpha serine/threonine-protein kinase (AKT1, Homo sapiens, UniProt P31749) | 89.1
Tyrosine-protein kinase ITK/TSK (ITK, Homo sapiens, UniProt Q08881) | 102
MAP/microtubule affinity-regulating kinase 3 (MARK3, Homo sapiens, UniProt P27448) | 104
Serine/threonine-protein kinase N1 (PKN1, Homo sapiens, UniProt Q16512) | 89.1
Vascular endothelial growth factor receptor 3 (FLT4, Homo sapiens, UniProt P35916) | 89.7
PAS domain-containing serine/threonine-protein kinase (PASK, Homo sapiens, UniProt Q96RG2) | 89.8
Tyrosine-protein kinase Fgr (FGR, Homo sapiens, UniProt P09769) | 55.8
Insulin receptor (INSR, Homo sapiens, UniProt P06213) | 94.4
Homeodomain-interacting protein kinase 1 (HIPK1, Homo sapiens, UniProt Q86Z02) | 108
Megakaryocyte-associated tyrosine-protein kinase (MATK, Homo sapiens, UniProt P42679) | 85.9
Serine/threonine-protein kinase MRCK alpha (CDC42BPA, Homo sapiens, UniProt Q5VT25) | 93.2
Serine/threonine-protein kinase 25 (STK25, Homo sapiens, UniProt O00506) | 99
Tyrosine-protein kinase Fyn (FYN, Homo sapiens, UniProt P06241) | 85.9

Set 2
Structure (SMILES): COc1ccc2c(c1)O[C@H](c1ccc(OC)c(OC)c1)C[C@@H]2NC(=O)C1(c2ccc3c(c2)OC(F)(F)O3)CC1
Read-out: cell-free assay
Technique: competition with immobilised ligand
Tested at: 1 µM
target | remaining binding
Mitogen-activated protein kinase 12 (MAPK12, Homo sapiens, UniProt P53778) | 98%
Mitogen-activated protein kinase 7 (MAPK7, Homo sapiens, UniProt Q13164) | 100%
Tyrosine-protein kinase ABL1, non-phosphorylated (ABL1, Homo sapiens, UniProt P00519) | 100%
Serine/threonine-protein kinase Nek3 (NEK3, Homo sapiens, UniProt P51956) | 90%
Cyclin-dependent kinase 5 (CDK5, Homo sapiens, UniProt Q00535) | 100%
Serine/threonine-protein kinase 38 (STK38, Homo sapiens, UniProt Q15208) | 100%
Phosphatidylinositol 4,5-bisphosphate 3-kinase catalytic subunit alpha isoform (PIK3CA, Homo sapiens, UniProt P42336) | 82%
Macrophage colony-stimulating factor 1 receptor, autoinhibited (CSF1R, Homo sapiens, UniProt P07333) | 100%
Serine/threonine-protein kinase MAK (MAK, Homo sapiens, UniProt P20794) | 95%
Homeodomain-interacting protein kinase 3 (HIPK3, Homo sapiens, UniProt Q9H422) | 91%

Set 3
Target: CCND3, cyclin fold, Cln2 fusion (human)
Technique: yeast growth competition, sequencing
Sample: yeast
Setting: weak parent motif
Relative to: not given
Direction: higher = stronger binding
Starting sequence: BRCA2 docking peptide (human); PSIKRNLLNEFDR
Change | normalised enrichment score
R5A L7A | 0.202
P1T | 0.103
F11Q | 0.0959
L8S | 0.155
I3W | 0.0682
R5A | 0.109
R13G | 0.125
R5N | 0.0117

Set 4
Target: CEP164, C-terminal peptide (human)
Technique: DHFR complementation, deep sequencing
Sample: yeast
Setting: single substitutions, model-inferred values
Relative to: wild type
Direction: higher = weaker binding
Starting sequence: PDZK1, PDZ domain 2 (human); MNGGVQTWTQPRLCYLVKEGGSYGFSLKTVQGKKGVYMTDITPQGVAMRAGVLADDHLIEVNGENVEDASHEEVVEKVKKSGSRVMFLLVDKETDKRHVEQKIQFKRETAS; partner HNRVKVYRF
Change | binding free energy change [kcal/mol]
T42Y | 0.559
V61H | 1.02
G35C | 1.04
D95T | -0.149
F25K | 1.69
P43W | 0.111
K77S | 0.219
K34Y | 0.479

Single results of other studies
SMILES | tested on | assay | test system | setting | endpoint | result
CC(C)n1cnc(-c2ccc(F)cc2)c1-c1ncc(C(=O)Nc2ccc(N3CCN(C)CC3)cc2)[nH]1 | – | – | IPF patients | 60 mg once daily, adverse event | Cholecystitis incidence | 0%
OCCN1CCN(CCCN2c3ccccc3Sc3ccc(Cl)cc32)CC1 | – | – | mouse, serum | dose not given | serum alkaline phosphatase | 36.5 ± 9.2 U/L
CC(C)C(=O)N1CCN(c2nc(OC[C@@H]3CCCN3C)nc3c2CCN(c2cccc4cccc(Cl)c24)C3)C[C@@H]1CC#N | HEK293 RAS-independent | cell growth, CellTiter-Glo | – | – | IC50 | 4.9 µM

Some of these lines once more (set 1):
target | remaining activity [%]
Insulin receptor (INSR, Homo sapiens, UniProt P06213) | 94.4
cAMP-dependent protein kinase catalytic subunit PRKX (PRKX, Homo sapiens, UniProt P51817) | 101
Tyrosine-protein kinase ITK/TSK (ITK, Homo sapiens, UniProt Q08881) | 102
